Results from different studies.
Lines come from different studies, so protocols differ. Numbers after ± are the reported error.
NR3C1: Glucocorticoid receptor (NR3C1, Homo sapiens, UniProt P04150)
NMT1: Glycylpeptide N-tetradecanoyltransferase 1 (NMT1, Homo sapiens, UniProt P30419)

Protein sequences, listed by entry. Tags and fused reporters are not part of them. Lines headed by an entry give the natural chain unless they say otherwise; changes in a name come on top. Residues count along the entry.
UniProt P04150, whole entry: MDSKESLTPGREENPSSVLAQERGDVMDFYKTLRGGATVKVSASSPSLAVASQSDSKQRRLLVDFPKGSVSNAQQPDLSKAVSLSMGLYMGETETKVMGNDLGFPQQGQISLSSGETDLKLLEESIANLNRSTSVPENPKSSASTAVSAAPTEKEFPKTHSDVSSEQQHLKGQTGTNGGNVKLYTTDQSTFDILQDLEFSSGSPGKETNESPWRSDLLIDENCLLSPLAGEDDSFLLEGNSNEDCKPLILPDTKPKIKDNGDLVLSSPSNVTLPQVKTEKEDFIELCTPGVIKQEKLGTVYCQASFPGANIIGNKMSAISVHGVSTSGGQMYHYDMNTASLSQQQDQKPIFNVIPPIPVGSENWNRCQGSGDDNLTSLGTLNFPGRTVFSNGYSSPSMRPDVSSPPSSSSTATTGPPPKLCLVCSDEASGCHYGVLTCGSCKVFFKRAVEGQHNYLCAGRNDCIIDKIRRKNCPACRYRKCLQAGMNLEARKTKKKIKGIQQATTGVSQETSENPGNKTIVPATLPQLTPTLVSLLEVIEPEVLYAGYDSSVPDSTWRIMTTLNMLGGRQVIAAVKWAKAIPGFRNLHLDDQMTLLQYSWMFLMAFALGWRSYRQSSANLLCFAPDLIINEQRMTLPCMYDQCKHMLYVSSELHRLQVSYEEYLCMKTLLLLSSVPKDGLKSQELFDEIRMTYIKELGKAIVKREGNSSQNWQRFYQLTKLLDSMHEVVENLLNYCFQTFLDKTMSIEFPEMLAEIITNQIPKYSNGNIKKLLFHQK
UniProt P30419, whole entry: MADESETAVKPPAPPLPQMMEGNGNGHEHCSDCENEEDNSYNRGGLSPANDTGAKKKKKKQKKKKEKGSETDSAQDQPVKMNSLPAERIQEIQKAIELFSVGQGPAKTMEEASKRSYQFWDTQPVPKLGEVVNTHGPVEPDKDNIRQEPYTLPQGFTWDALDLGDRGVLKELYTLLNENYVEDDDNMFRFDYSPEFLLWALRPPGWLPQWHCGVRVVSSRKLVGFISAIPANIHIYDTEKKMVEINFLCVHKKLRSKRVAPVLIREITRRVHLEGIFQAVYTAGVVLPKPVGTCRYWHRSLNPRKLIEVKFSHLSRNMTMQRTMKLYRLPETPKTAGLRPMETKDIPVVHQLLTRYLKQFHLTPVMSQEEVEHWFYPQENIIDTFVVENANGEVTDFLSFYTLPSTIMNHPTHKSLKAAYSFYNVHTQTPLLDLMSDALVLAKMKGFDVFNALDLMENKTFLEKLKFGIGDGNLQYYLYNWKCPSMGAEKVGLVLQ
UniProt Q9NYA1, 1-470 isoform 2: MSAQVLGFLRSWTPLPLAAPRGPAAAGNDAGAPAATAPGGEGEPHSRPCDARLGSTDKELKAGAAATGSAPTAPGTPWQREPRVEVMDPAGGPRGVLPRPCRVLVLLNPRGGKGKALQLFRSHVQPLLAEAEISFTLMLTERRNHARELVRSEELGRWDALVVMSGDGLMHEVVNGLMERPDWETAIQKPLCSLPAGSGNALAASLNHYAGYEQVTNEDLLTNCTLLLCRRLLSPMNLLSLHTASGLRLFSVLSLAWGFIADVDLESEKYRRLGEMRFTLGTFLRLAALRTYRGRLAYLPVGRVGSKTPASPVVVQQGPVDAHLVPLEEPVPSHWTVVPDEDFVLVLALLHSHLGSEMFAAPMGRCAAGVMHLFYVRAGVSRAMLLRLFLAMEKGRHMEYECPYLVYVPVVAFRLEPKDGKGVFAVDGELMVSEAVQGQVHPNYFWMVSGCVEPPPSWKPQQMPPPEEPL
UniProt Q9H8M2, whole entry: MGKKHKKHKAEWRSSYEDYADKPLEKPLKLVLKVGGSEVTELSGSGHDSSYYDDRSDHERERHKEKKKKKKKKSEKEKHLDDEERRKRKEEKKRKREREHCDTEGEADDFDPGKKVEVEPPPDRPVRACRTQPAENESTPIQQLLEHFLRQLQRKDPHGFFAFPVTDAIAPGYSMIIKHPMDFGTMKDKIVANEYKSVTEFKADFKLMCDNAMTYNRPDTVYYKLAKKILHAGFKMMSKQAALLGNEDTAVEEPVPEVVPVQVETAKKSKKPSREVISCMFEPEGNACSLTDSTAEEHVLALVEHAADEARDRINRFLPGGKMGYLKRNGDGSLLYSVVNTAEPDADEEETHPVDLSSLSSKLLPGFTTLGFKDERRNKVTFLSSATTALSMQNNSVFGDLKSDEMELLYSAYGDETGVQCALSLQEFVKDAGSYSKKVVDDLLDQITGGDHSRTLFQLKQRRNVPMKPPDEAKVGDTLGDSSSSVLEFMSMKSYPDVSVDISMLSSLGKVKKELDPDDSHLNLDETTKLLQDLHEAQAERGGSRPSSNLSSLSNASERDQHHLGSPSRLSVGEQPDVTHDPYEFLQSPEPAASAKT
UniProt P29317, 28-206 limits assumed: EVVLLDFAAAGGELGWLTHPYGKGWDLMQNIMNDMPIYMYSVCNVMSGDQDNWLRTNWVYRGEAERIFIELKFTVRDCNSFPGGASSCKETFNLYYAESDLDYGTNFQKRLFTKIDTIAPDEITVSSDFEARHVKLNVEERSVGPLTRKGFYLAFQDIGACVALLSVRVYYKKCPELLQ
UniProt O14965, whole entry: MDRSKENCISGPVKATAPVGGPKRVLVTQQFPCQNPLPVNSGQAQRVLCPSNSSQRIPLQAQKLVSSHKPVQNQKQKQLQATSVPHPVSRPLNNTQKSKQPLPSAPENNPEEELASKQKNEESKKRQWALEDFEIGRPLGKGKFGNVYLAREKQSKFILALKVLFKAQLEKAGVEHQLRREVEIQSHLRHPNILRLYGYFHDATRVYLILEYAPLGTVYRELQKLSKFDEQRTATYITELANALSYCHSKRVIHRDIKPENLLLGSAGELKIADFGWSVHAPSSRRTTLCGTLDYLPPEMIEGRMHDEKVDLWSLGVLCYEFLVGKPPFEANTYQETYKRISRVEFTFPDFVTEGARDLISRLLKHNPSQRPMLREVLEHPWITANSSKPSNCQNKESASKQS
UniProt P10636, whole entry, looked up: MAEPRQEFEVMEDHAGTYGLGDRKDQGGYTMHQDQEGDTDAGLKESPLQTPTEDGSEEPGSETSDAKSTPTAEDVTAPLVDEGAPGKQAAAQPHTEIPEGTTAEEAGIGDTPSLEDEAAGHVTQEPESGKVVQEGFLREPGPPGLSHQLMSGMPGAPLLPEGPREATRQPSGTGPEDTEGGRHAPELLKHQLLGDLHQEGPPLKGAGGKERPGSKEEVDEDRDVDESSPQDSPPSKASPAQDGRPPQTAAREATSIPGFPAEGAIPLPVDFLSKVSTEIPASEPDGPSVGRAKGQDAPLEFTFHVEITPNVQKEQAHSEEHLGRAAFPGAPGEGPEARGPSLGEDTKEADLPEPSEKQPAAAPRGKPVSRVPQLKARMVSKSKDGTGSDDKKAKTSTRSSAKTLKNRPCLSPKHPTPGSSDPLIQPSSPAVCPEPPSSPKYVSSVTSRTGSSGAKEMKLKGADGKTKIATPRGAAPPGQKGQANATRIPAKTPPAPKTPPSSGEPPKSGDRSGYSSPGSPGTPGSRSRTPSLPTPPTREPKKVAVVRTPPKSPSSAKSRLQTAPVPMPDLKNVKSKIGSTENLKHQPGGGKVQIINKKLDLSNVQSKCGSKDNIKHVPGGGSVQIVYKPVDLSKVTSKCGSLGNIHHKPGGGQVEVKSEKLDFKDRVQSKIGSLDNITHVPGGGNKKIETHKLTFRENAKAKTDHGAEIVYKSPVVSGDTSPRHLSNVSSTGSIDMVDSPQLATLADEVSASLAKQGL
UniProt Q99720, whole entry: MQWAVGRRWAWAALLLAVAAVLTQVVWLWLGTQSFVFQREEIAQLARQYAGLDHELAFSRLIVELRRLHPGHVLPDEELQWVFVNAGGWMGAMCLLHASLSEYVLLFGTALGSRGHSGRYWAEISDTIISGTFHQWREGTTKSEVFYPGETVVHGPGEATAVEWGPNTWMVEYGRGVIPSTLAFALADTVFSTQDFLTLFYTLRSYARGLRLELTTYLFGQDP
UniProt Q8K3Y3, whole entry, looked up: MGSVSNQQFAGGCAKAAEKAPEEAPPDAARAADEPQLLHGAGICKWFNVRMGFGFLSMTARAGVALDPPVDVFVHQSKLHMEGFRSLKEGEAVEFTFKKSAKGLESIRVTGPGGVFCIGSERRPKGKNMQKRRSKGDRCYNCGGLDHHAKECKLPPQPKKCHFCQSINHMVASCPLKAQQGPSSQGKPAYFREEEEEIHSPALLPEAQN
UniProt O00519, whole entry: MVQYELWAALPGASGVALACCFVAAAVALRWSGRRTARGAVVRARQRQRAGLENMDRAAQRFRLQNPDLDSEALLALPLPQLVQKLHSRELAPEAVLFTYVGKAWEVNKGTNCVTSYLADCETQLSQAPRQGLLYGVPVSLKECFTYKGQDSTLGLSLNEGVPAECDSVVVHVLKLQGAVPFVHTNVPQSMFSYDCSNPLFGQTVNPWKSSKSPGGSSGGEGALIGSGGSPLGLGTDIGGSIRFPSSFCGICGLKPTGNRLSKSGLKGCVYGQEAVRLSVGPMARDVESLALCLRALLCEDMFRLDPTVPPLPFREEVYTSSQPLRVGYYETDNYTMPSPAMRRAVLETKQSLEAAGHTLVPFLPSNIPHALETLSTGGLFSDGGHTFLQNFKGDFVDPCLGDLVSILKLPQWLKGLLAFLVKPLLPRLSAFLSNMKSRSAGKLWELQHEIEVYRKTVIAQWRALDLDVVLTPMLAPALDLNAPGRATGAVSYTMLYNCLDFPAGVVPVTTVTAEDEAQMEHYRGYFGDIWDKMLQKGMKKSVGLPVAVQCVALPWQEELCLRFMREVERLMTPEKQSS
UniProt P07948, whole entry: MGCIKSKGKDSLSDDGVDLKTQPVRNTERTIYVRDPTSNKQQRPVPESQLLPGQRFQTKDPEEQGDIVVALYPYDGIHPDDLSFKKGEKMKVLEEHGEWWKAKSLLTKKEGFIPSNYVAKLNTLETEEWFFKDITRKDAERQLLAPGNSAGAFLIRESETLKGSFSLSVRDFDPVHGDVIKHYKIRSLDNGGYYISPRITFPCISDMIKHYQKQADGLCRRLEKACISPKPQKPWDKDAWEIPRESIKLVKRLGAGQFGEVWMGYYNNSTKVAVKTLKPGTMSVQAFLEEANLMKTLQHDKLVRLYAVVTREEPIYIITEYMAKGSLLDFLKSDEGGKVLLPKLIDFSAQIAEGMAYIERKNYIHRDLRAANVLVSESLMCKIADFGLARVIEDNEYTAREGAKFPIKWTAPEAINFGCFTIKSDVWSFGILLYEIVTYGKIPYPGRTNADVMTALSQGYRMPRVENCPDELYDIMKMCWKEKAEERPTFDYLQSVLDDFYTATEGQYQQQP
UniProt P00533, 25-1210 T790M/L858R limits assumed: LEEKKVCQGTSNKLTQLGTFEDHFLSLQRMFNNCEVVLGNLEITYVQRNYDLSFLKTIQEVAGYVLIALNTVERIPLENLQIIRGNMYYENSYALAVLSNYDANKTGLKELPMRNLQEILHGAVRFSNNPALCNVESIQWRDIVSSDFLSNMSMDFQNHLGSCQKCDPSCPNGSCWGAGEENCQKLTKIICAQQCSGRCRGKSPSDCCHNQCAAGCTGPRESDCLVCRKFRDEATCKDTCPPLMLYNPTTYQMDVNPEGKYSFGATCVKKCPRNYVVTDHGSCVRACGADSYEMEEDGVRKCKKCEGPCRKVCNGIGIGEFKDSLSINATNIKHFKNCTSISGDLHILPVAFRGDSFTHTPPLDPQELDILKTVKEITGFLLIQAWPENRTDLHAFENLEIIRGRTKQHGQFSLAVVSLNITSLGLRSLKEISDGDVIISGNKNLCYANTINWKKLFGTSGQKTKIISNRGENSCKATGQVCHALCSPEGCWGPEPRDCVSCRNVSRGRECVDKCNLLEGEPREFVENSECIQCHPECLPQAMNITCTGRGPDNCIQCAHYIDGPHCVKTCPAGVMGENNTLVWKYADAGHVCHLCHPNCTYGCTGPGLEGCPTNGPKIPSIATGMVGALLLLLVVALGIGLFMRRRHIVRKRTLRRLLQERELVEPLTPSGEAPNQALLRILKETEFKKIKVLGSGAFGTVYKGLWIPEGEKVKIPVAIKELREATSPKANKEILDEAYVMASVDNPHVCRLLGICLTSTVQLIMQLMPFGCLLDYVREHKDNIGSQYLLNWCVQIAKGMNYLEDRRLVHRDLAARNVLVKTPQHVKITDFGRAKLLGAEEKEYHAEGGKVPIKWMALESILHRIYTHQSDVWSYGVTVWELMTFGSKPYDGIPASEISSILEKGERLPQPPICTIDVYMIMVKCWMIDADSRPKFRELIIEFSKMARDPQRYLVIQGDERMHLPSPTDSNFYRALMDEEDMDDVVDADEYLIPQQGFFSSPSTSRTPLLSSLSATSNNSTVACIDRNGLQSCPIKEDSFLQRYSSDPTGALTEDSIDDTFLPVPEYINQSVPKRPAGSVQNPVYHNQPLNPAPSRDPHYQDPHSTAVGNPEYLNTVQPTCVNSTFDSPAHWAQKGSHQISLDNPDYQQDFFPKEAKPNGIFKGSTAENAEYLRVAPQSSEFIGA
UniProt Q9QWY8, 325-451 limits assumed: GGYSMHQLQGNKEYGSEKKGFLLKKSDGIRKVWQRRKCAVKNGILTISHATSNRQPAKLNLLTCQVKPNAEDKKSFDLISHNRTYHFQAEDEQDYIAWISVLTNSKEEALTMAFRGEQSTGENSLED

C[C@]1(c2ccccc2)O[C@@H]2C[C@@H]3[C@@H]4CCC5=CC(=O)C=C[C@@]5(C)[C@]4(F)[C@H](O)C[C@]3(C)[C@@]2(C(=O)CO)O1 — maximal activity (NR3C1; nuclear translocation, agonist, enzyme fragment complementation): 85%
Fc1cccc(-n2cnc3c(NCc4nc5cc(Cl)ccc5[nH]4)nc(N4CCNCC4)nc32)c1 — remaining binding (PRKCQ (Homo sapiens, UniProt Q04759); KINOMEscan competition binding; 10 µM; baseline: control): 5%
NC[C@@H]1O[C@H](C23CC4CC(CC(C4)C2)C3)Cc2c1ccc(O)c2O — Emax (DRD5 (Homo sapiens, UniProt P21918); agonist; baseline: SKF-81297): 100 ± 6%
CC[C@H](C)[C@H](NC(=O)[C@@H](NC(=O)[C@H](CC(C)C)NC(=O)[C@H](CC(C)C)NC(=O)CN)[C@@H](C)O)C(=O)N[C@@H](CC(C)C)C(=O)N[C@@H](CCCCN)C(=O)N[C@@H](CCCCN)C(=O)O — Km (NMT1; substrate): 0.4 µM
Nc1c(C(=O)Nc2c(F)cc(F)cc2Br)sc2nc3c(cc12)CCC3 — ROS level (H1299; DCFH-DA; 10 µM, 12 h): increased
C[C@@]12CCC(=O)C=C1CC[C@H]1C2[C@@H](O)C[C@]2(C)[C@@H]1CC[C@@]2(O)C(=O)COC(=O)C1CCCC1 (stereo partly shown) — maximal activity (NR3C1; nuclear translocation, agonist, enzyme fragment complementation): 100%
CSCC[C@H](NC(=O)[C@@H](NC(=O)[C@H](CCC(=O)O)NC(=O)CN)[C@@H](C)O)C(=O)N[C@@H](CO)C(=O)N[C@@H](CCCCN)C(=O)N[C@@H](CCCNC(=N)N)C(=O)N[C@@H](CC(C)C)C(=O)O — Km (NMT1; substrate): 13 µM
O=C1C(=Cc2ccc(O)c(O)c2)Oc2ccccc21 — Ki (SPHK1 (Homo sapiens, UniProt Q9NYA1); inhibitor, FlashPlate): 10 µM
O=C(/C=C/c1nc2ccccc2[nH]1)c1c(-c2ccccc2)c2cc(Cl)ccc2[nH]c1=O — kinase inhibition (CHUK (Homo sapiens, UniProt O15111); SelectScreen profiling; concentration not given, panel of 100 kinases): inhibited
COc1cc(CC(=O)NCC(NC(=O)C(CCCNC(=O)c2cccc(I)c2)NC(=O)C(Cc2ccc(C(F)(F)P(=O)(O)O)cc2)NC(=O)c2ccc(C)c(Br)c2)C(N)=O)ccc1O (stereo not shown) — inhibition (Receptor-type tyrosine-protein phosphatase beta (Homo sapiens, UniProt P23467); enzyme activity; 10 µM): no inhibition
CC(C)[C@H](NC(=O)[C@H](CCCNC(=N)N)NC(=O)[C@H](CO)NC(=O)CN)C(=O)N[C@@H](CO)C(=O)N[C@@H](CCCNC(=N)N)C(=O)N[C@@H](CCC(=O)O)C(=O)N[C@@H](CC(=O)O)C(=O)O — Km (NMT1; substrate): 79.2 µM
CC[C@@H]1C(=O)N(C)c2cnc(Nc3ccc(C(=O)NC4CCN(C)CC4)cc3OC)nc2N1C1CCCC1 — delta Tm (BRD9 (Homo sapiens, UniProt Q9H8M2); 10 µM): 0.51 ± 0.09 °C
COc1ccc2[nH]cc(CCNC(=O)[C@H](Cc3ccncc3)NC(=O)[C@H](Cc3ccc(Cl)cc3)NC(=O)[C@H](Cc3c[nH]c4ccc(O)cc34)NC(=O)CCCN)c2c1 — Kd (EPHA2 (Homo sapiens, UniProt P29317); binding, isothermal titration calorimetry): inactive
COC(=O)c1c(O)cc(O)c(Cl)c1CCc1cc(OC)ccc1Cc1ccccc1 — selectivity ratio (Endoplasmin (HSP90B1, Canis lupus familiaris, UniProt P41148); fluorescence polarization; added: FITC-geldanamycin tracer; baseline: Grp94 over Hsp90α): 5 fold
O=C(Oc1c(F)c(F)c(F)c(F)c1F)C(c1ccccc1)c1ccccc1 — maximal inhibition (PFKP (Homo sapiens, UniProt Q01813); enzyme activity, inhibitor, NADH-coupled absorbance): ~80%
CCCCCCCCCCCCCC(=O)O[C@H](CCCCCCCCCCC)CC(=O)O[C@@H]1[C@@H](NC(=O)C[C@@H](CCCCCCCCCCC)OC(=O)CCCCCCCCCCC)[C@H](OC[C@H]2O[C@H](OP(=O)(O)O)[C@H](NC(=O)C[C@H](O)CCCCCCCCCCC)[C@@H](OC(=O)C[C@H](O)CCCCCCCCCCC)[C@@H]2O)O[C@H](CO)[C@H]1OP(=O)(O)O — binding affinity decrease (msbA (Escherichia coli, UniProt P60752); fluorescence quenching; concentration not given, 23 °C, daunorubicin site occupied first; baseline: daunorubicin site empty over occupied): ~5 fold
CCN1CCN(Cc2ccc(Nc3ncc4c(n3)N(C)c3c(F)cccc3C(=O)N4C)cc2C(F)(F)F)CC1 — selectivity ratio (Aurora kinase A (AURKA, Homo sapiens, UniProt O14965); kinase activity, Z-LYTE; baseline: IC50 Aurora B over Aurora A): 36 fold
Cc1c(O)cc2c(c1C)O[C@](C)(CCCC(C)C)CC2 — tumour growth (bioluminescence; athymic nude mouse, PC-3-luc xenograft; intraperitoneal, 50 mg/kg daily, 21 days; baseline: vehicle): inhibited
Fc1cc(-c2ccc3c(n2)[nH]c2ccncc23)ccn1 [isotope labelled] — specific binding (Microtubule-associated protein tau, paired helical filaments (MAPT, Homo sapiens, UniProt P10636); radioligand binding; PHF tau brain homogenate; 13.55 nM; higher = more binding): 9.89 a.u.
Cc1cccc(NC(=O)c2nn(Cc3cnc[nH]3)c3c2CN(C(=O)c2ccc[nH]2)CC3)c1 — CD15-positive cells (IDH1 R132G AML cells; granulocytic differentiation, flow cytometry; 3 µM, 6 to 7 days; baseline: DMSO): 1.1 ± 0.4 fold
CC[C@H](C)[C@H](NC(=O)[C@H](CS)NC(=O)CN)C(=O)N[C@@H](CCCCN)C(=O)N[C@@H](CO)C(=O)N[C@@H](CCCCN)C(=O)N[C@@H](CCC(=O)O)C(=O)N[C@@H](CC(N)=O)C(=O)O — Km (NMT1; substrate): 14.4 µM
C[C@H]1C[C@@H]2[C@H]3CCC4=CC(=O)C=C[C@@]4(C)[C@]3(Cl)[C@@H](Cl)C[C@]2(C)[C@]1(O)C(=O)COP(=O)(O)O — Hill slope (NR3C1; nuclear translocation, agonist, enzyme fragment complementation): 1.36
CC1=Cc2ccccc2C12CCN(C1Cc3ccccc3CC1O)CC2 (single isomer, unassigned) — selectivity ratio (SIGMAR1 (Homo sapiens, UniProt Q99720); baseline: Ki sigma2 (rat liver) over Ki sigma1 (human)): 10
O=c1cc(O)n(Cc2ccco2)c(=S)[nH]1 — Hill slope (Protein lin-28 homolog A, with pre-let-7d (Mus musculus, UniProt Q8K3Y3); HTS dose-response): -1.3
O=C(ON1C(=O)C2CN(C(=O)N3CCOCC3)CCN2C1=O)N1CCC(CCc2ccc(Cl)cc2)CC1 (stereo not shown) — dose for near-complete inhibition (Acyl-protein thioesterase 1 (Lypla1, Mus musculus, UniProt P97823); enzyme activity, inhibitor, gel-based ABPP; C57BL/6 mice, liver and kidney; intraperitoneal, 4 h, not brain): 5 mg/kg
O=C(Nc1cccnn1)N1CC(Oc2ccc(-c3ccccc3F)cn2)C1 — dose for maximal inhibition (FAAH (Homo sapiens, UniProt O00519); enzyme activity, inhibitor; healthy humans, blood; oral, single dose): ≥ 30 mg
CCN1CCN(Cc2ccc(NC(=O)c3ccc(C)c(Oc4ncnc5cc(OC)c(OC)cc45)c3)cc2C(F)(F)F)CC1 — residual probe binding (LYN (Homo sapiens, UniProt P07948); KINOMEscan competition binding; 1.0 µM): 1%
C[C@H](NC(=O)[C@@H]1CCCN1C(=O)CNC(=O)[C@H](CO)NC(=O)[C@H](CCC(N)=O)NC(=O)[C@H](CCCCN)NC(=O)[C@H](C)NC(=O)CN)C(=O)O — Km (NMT1; substrate): 2 µM
O=C1CCC(N2C(=O)c3cccc(NCCOCCOCCOCCN4CCN(c5ccc(-c6ccc7c(c6)C(=O)N(C(C(=O)Nc6nccs6)c6ccccc6)C7)cn5)CC4)c3C2=O)C(=O)N1 (stereo not shown) — Dmax (EGFR (Homo sapiens, UniProt P00533, L858R/T790M); degrader, Western blot; Ba/F3 EGFR L858R/T790M; 0.1 µM, 24 h): 59 to 62%
Cn1cc2c(nc(NCCCNC(=S)Nc3ccc(-c4c5ccc(=O)cc-5oc5cc(O)ccc45)c(C(=O)O)c3)n3nc(-c4ccco4)nc23)n1 — inhibition (ADORA1 (Homo sapiens, UniProt P30542); binding; CHO; 10 µM, added: [3H]R-PIA): 5 ± 2%
CCCCCCCC(=O)OCC(COP(=O)(O)OC1C(O)C(O)C(OP(=O)(O)O)C(OP(=O)(O)O)C1O)OC(=O)CCCCCCC (stereo not shown) — Kd (Arf-GAP with SH3 domain, ANK repeat and PH domain-containing protein 1 (Asap1, Mus musculus, UniProt Q9QWY8); protein binding to vesicles, vesicle sedimentation; large unilamellar vesicles; isolated PH domain, added: 75 µM phosphatidylserine): 7 ± 1 µM

A few entries again:
O=C(Nc1cccnn1)N1CC(Oc2ccc(-c3ccccc3F)cn2)C1 — dose for maximal inhibition (FAAH (Homo sapiens, UniProt O00519); enzyme activity, inhibitor; healthy humans, blood; oral, single dose): ≥ 30 mg
CCN1CCN(Cc2ccc(NC(=O)c3ccc(C)c(Oc4ncnc5cc(OC)c(OC)cc45)c3)cc2C(F)(F)F)CC1 — residual probe binding (LYN (Homo sapiens, UniProt P07948); KINOMEscan competition binding; 1.0 µM): 1%
CC(C)[C@H](NC(=O)[C@H](CCCNC(=N)N)NC(=O)[C@H](CO)NC(=O)CN)C(=O)N[C@@H](CO)C(=O)N[C@@H](CCCNC(=N)N)C(=O)N[C@@H](CCC(=O)O)C(=O)N[C@@H](CC(=O)O)C(=O)O — Km (NMT1; substrate): 79.2 µM
